Earlier results as cited in several papers.
Each line is one published result; not all experiments were run side by side. Values after ≈ are worked out from the molar mass of the structure shown.
UniProt Q9UL54, sequence (whole entry, looked up): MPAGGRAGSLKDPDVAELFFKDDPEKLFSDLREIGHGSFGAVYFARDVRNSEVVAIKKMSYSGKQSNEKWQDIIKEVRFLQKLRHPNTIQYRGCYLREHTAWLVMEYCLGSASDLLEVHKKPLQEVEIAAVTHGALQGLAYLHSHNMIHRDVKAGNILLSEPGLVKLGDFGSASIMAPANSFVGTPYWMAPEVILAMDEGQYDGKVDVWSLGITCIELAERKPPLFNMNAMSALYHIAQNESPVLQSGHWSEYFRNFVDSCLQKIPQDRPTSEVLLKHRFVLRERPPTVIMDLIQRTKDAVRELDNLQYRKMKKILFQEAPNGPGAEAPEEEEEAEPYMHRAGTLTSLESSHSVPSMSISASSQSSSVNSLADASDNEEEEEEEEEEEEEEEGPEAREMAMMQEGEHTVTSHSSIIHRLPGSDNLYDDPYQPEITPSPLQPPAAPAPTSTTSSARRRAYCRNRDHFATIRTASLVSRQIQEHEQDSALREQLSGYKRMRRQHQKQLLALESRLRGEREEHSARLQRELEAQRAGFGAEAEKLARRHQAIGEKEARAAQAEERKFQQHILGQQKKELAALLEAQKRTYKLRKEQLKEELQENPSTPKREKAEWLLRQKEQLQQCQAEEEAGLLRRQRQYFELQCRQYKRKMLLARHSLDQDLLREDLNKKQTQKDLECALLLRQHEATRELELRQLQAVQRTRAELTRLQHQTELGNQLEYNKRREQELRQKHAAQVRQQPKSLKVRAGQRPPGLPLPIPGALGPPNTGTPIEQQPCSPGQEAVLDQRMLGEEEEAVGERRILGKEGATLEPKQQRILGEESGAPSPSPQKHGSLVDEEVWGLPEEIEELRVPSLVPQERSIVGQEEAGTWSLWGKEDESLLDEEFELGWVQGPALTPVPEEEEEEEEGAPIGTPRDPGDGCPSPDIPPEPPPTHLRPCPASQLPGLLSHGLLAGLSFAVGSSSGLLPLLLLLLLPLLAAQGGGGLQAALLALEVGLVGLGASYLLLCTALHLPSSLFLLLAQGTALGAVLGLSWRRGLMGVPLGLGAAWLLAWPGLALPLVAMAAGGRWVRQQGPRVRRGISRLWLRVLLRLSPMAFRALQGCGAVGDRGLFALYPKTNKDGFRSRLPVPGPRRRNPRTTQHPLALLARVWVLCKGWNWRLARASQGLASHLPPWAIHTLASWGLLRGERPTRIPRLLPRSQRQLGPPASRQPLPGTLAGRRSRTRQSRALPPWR

The GI50 of C[C@H]1COCCN1c1nc(-c2cnc(N)cc2C(F)F)nc(N2CCOCC2)n1 is reported as 885 nM (MIA PaCa-2 cells; cell growth).
Cc1cnc(N2CC3(CCOCC3)C2)c(C(=O)Nc2ccc(C(=O)N3CCc4cc(C(=O)Nc5c(C)cccc5F)sc4-c4ccccc43)cc2)c1 gave an ID50 of 0.0666 mg/kg (respiratory syncytial virus; viral replication, PCR; cotton rat, lung homogenate).
[N-]=[N+]=N[C@]1(CO)O[C@@H](n2ccc(N)nc2=O)[C@@H](F)[C@@H]1O gave an EC50 of 0.014 nM (HIV-1; viral replication; Hut/CCR5).
N#Cc1ccc(N[C@@H](CC2CCCCC2)C(=O)N[C@@H]2CCCc3ccccc32)c2ccccc12 gave an IC50 of 730 nM (Plasmodium falciparum; whole cell extended time; 3D7; 72 h).
For Nc1cc(C(F)(F)F)c(-c2nc(N3CCOCC3)nc(N3CCOCC3)n2)cn1, the remaining activity was 100% (TAOK2 (Homo sapiens, UniProt Q9UL54); enzyme activity; 10 µM; baseline: untreated).
Oc1ccc(-c2nc(-c3ccc(OC4CCCC4)cc3)no2)cc1 has an MIC of 2 to 4 µg/mL (≈ 6.2 to 12.4 µM) (Staphylococcus aureus; ATCC 27660 mecA-positive).
CCc1c(Cl)c(O)c(Cl)c(O)c1C(=O)O[C@H]1[C@H](O)[C@H](OC)[C@H](OC/C2=C\C=C\C[C@H](O)/C(C)=C/[C@H](CC)[C@@H](O[C@@H]3OC(C)(C)[C@@H](OC(=O)C(C)C)[C@H](O)[C@@H]3O)/C(C)=C/C(C)=C/C[C@@H]([C@@H](C)O)OC2=O)O[C@@H]1C has an MIC of greater than 128 µg/mL (Klebsiella pneumoniae; ATCC 700603).
Under “worm burden reduction”, O=C(C1CCCCC1)N1CC(=O)N2CCc3ccccc3C2C1 (stereo not drawn) is recorded as 95 to 100% (Schistosoma mansoni; infected mice; 400 mg/kg; baseline: untreated).
With Cc1[nH]cc(Br)c(=O)c1-c1ccc(Oc2ccc(OC(F)(F)F)cc2)cc1 the IC50 was 330 nM (Plasmodium falciparum; whole cell extended time; 3D7; 72 h).
CC1(C)S[C@@H]2[C@H](NC(=O)[C@H](N)c3ccccc3)C(=O)N2[C@H]1C(=O)O has an MIC of 8 µg/mL (≈ 22.9 µM) (Klebsiella pneumoniae; clinical isolate RKI-No_600/16).
CCC(C)(C)C1CCc2[nH]c3ccccc3c(=O)c2C1 (stereo not drawn) has an IC50 of 380 nM (Plasmodium falciparum; whole cell extended time; 3D7; 72 h).
With CNC(C)C1CCC(N)C(OC2C(N)CC(N)C(OC3OCC(C)(O)C(NC)C3O)C2O)O1 (stereo not drawn) the MIC was greater than 8 µg/mL (Acinetobacter baumannii; clinical isolate RKI-No_230/15).

For quick reference, copied from above:
With CNC(C)C1CCC(N)C(OC2C(N)CC(N)C(OC3OCC(C)(O)C(NC)C3O)C2O)O1 (stereo not drawn) the MIC was greater than 8 µg/mL (Acinetobacter baumannii; clinical isolate RKI-No_230/15).
